Measurements collected from several papers.
Lines come from different studies, so protocols differ. Several values in a cell are separate wells, animals, samples, runs or records. ± marks the error that the study gave. Values after ≈ are worked out from the molar mass of the structure shown.
Sequence of UniProt Q9Y2U5 (whole entry, looked up): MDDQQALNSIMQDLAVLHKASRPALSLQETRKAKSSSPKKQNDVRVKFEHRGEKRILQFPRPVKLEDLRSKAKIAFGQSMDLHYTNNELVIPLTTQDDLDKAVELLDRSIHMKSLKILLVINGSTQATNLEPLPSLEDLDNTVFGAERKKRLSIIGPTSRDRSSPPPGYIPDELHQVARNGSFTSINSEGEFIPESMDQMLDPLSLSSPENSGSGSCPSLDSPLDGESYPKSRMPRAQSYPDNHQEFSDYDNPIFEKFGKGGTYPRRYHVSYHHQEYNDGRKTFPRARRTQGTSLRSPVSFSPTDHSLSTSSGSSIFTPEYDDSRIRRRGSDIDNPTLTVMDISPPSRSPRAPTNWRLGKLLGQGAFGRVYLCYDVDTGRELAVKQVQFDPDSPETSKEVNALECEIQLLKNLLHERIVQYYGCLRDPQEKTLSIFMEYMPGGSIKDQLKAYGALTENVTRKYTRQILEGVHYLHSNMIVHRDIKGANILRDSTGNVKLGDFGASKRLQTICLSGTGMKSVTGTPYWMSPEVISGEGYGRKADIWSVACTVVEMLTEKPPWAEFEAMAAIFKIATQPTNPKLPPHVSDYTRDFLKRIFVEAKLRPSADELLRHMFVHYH

C=Cc1c(C)c2cc3nc(c(CC(=O)O)c4[nH]c(cc5nc(cc1[nH]2)C(C)=C5CC)c(C)c4C(=O)O)[C@@H](CCC(=O)NCCCC[C@H](NC(C)=O)C(=O)N[C@@H](Cc1ccccc1)C(=O)N[C@@H](Cc1ccccc1)C(=O)N[C@H](C(=O)N[C@@H](CC(C)C)C(=O)N[C@@H](CCCCN)C(=O)N[C@@H](CO)C(=O)NCC(=O)N[C@@H](CCC(N)=O)C(=O)N[C@@H](Cc1ccc(O)cc1)C(=O)N[C@@H](C)C(=O)N[C@@H](CO)C(=O)N[C@@H](Cc1ccc(O)cc1)C(=O)N[C@@H](Cc1c[nH]cn1)C(=O)N[C@@H](CS)C(=O)N[C@@H](Cc1c[nH]c2ccccc12)C(=O)N[C@@H](CS)C(=O)N[C@@H](Cc1c[nH]c2ccccc12)C(=O)N[C@@H](CCCNC(=N)N)C(=O)N[C@@H](CC(=O)O)C(=O)N1CCC[C@H]1C(=O)NCC(=O)N[C@@H](CCCNC(=N)N)C(=O)N[C@@H](CO)C(=O)NCC(=O)NCC(=O)N[C@@H](CO)C(=O)N[C@@H](CCCCN)C(N)=O)C(C)C)[C@@H]3C — blood concentration (mouse, blood; 2 h): 129 µg/mL
CN1C(=O)[C@@H]2NC(=O)[C@@H]3NC(=O)[C@@H](c4ccc(O)cc4)NC(=O)[C@H](NC(=O)C(N)c4ccc(O)cc4)Cc4c[nH]c5cc(ccc45)-c4cc3cc(c4O)Oc3ccc(cc3)C[C@H]1C(=O)N[C@@H](C(=O)O)c1ccc(O)c(c1)Oc1ccc2cc1 (stereo partly shown) — thermodynamic solubility (saline; 24 h, 25 °C): 6.1 µg/mL (≈ 5.44 µM)
C=Cc1c(C)c2cc3nc(c(CC(=O)[O-])c4[n-]c(cc5nc(cc1[n-]2)C(C)=C5CC)c(C)c4C(=O)[O-])C(CCC(=O)[O-])C3C.[Cu+2].[Na+].[Na+].[Na+] (stereo not shown) — haemoglobin (Wistar rat, male; oral, 500 mg/kg daily, 28 days): 14.4 ± 0.64 g/dL
Cc1nc2cccc(OCC(C)(C)C(=O)NC(C)C)c2c(N)c1C(=O)[O-].[Na+] — revertant colonies per plate (Salmonella typhimurium; TA1537; 5.0 mg per plate, with S9, preincubation): 13 ± 5
CCCC[C@H]1C(=O)N(C)[C@@H](CCCC)C(=O)N[C@@H](CCCNC(=O)CN2CCN(CC(=O)O)CCN(CC(=O)O)CCN(CC(=O)O)CC2)C(=O)N[C@H](C(=O)NCC(N)=O)CSCC(=O)N[C@@H](Cc2ccc(O)cc2)C(=O)N(C)[C@@H](C)C(=O)N[C@@H](CC(N)=O)C(=O)N2CCC[C@H]2C(=O)N[C@@H](Cc2c[nH]cn2)C(=O)N[C@@H](CC(C)C)C(=O)N(C)CC(=O)N[C@@H](Cc2c[nH]c3ccccc23)C(=O)N[C@@H](CO)C(=O)N[C@@H](Cc2c[nH]c3ccccc23)C(=O)N1C [gallium-68 labelled] — tissue uptake (NOD/SCID mice, CHO-hPD-L1 xenograft, kidney; 60 min, atezolizumab 10 mg/kg pretreatment): 49.8 ± 14.9 %ID/g
CCCC(=O)N[C@@H](CCCNC(=N)N)C(=O)N[C@@H](Cc1c[nH]c2ccccc12)C(=O)N[C@@H](CCCCN)C(=O)N[C@H](C(=O)N[C@@H](Cc1ccccc1)C(=O)N[C@@H](CCCCN)C(=O)N[C@@H](CCCCN)C(=O)N[C@H](C(=O)N[C@@H](CCC(=O)O)C(=O)N[C@@H](CCCCN)C(=O)N[C@H](C(=O)NCC(=O)N[C@@H](CCC(N)=O)C(=O)N[C@@H](CC(N)=O)C(=O)N[C@H](C(=O)N[C@@H](CCCNC(=N)N)C(=O)N[C@@H](CC(=O)O)C(=O)NCC(=O)N[C@H](C(=O)N[C@H](C(=O)N[C@@H](CCCCN)C(=O)N[C@@H](C)C(=O)NCC(=O)N1CCC[C@H]1C(=O)N[C@@H](C)C(=O)N[C@H](C(=O)N[C@@H](C)C(=O)N[C@H](C(=O)N[C@H](C(=O)NCC(=O)N[C@@H](CCC(N)=O)C(=O)N[C@@H](C)C(=O)N[C@@H](C)C(=O)N[C@H](C(=O)N[C@H](C(N)=O)[C@@H](C)CC)[C@@H](C)O)C(C)C)C(C)C)C(C)C)C(C)C)[C@@H](C)CC)[C@@H](C)CC)C(C)C)[C@@H](C)CC)[C@@H](C)CC — hemolysis (mouse erythrocytes; 32 µM, 1 h, 37 °C): < 8%
CC(C)[C@@H]1NC(=O)CNC(=O)[C@H](CC(N)=O)NC(=O)[C@H](CCCNC(=N)N)NC(=O)[C@H](Cc2ccc(O)cc2)NC(=O)[C@H](C(C)C)NC(=O)[C@@H](NC(=O)[C@@H](NC(=O)[C@H](CC(N)=O)NC(=O)[C@H](Cc2c[nH]c3ccccc23)NC(=O)[C@H](C)NC(=O)[C@H](Cc2ccccc2)NC(=O)CNC(=O)[C@H](CCCCN)NC(=O)[C@H](Cc2ccccc2)NC(=O)[C@H](Cc2ccccc2)NC(=O)[C@H](CCCCN)NC(=O)OCC2c3ccccc3-c3ccccc32)C(C)C)CSSC[C@@H](C(=O)N[C@@H](Cc2c[nH]cn2)C(=O)N[C@@H](CCCNC(=N)N)C(=O)N[C@@H](CCCNC(=N)N)C(=O)N[C@@H](C)C(=O)N[C@@H](CC(N)=O)C(N)=O)NC(=O)[C@H](C(C)C)NC(=O)[C@H](CCCNC(=N)N)NC1=O — MCH (ICR mouse, blood; intramammary, 10 mg/kg, day 5, 3 d dosing): 13.8 ± 0.17 pg
Cc1cc(C(=O)Nc2nc3cccc(C)c3n2[C@H]2CCCCN(C(=O)/C=C/CN(C)C)C2)ccn1 — survival (Trypanosoma brucei brucei; 2T1 CLK1 overexpressing; 2.5 µM, compound pretreated; relative to: maximum): 145% and 124% and 157% and 153%
CN(C)[C@H]1C[C@@]23CC[C@@]4(O2)C(=CC[C@]2(C)[C@@H](c5ccc6ccncc6c5)CC[C@H]24)C=C3[C@@H](O)[C@@H]1O — inhibition (Mitogen-activated protein kinase kinase kinase 2 (MAP3K2, Homo sapiens, UniProt Q9Y2U5); ATP probe labelling, inhibitor, KiNativ profiling; 1 µM): -13.3%
N#Cc1ccccc1CC(N)C(=O)NC(Cc1ccc(Cl)cc1Cl)C(=O)NC(CC(=O)NCCCc1cccnc1)Cc1ccc(F)cc1 (stereo not shown) — remaining compound (CD-1 mouse, liver microsomes; 1 µM, time not given, epoxide hydrolase conditions): 85%
Cc1ccccc1-c1ccc(-c2nc(-c3ccc(CN(C)CCCC(=O)O)c([18F])c3)no2)cc1C(F)(F)F — tracer uptake (rat, brain; 5 min): 0.4 %ID/g
CC(C)(C)C(=O)OCOP(=O)(OCOC(=O)C(C)(C)C)C1CCCN(O)C1=O (stereo not shown) — log TGI (UACC-257): -4.87 log M
CC(C)C[C@H](NC(=O)CNC(=O)[C@@H](NC(=O)[C@H](CS)NC(=O)[C@H](Cc1ccccc1)NC(=O)[C@H](CO)NC(=O)[C@H](CC(=O)O)NC(=O)[C@@H](NC(=O)[C@@H]1CCCN1C(=O)CNC(=O)[C@@H]1CCCN1C(=O)CNC(=O)[C@H](CCCNC(=N)N)NC(=O)[C@H](CCCNC(=N)N)NC(=O)[C@H](CCCNC(=N)N)NC(=O)[C@H](CCC(N)=O)NC(=O)[C@H](CCCNC(=N)N)NC(=O)[C@H](CCCNC(=N)N)NC(=O)[C@H](CCCCN)NC(=O)[C@H](CCCCN)NC(=O)[C@H](CCCNC(=N)N)NC(=O)CN)C(C)C)[C@@H](C)O)C(=O)N[C@@H](CC(C)C)C(=O)N[C@@H](Cc1ccccc1)C(=O)N[C@@H](CS)C(=O)N[C@@H](CS)C(=O)N[C@H](C(=O)NCC(=O)O)C(C)C — compound remaining (chemical stability; mouse, serum; 24 h): 90%
CC[C@H](C)[C@H](NC(=O)[C@H](CCCNC(=N)N)NC(=O)[C@H](CCCCN)NC(=O)[C@H](Cc1ccc(O)cc1)NC(=O)[C@H](CC(=O)O)NC(=O)[C@H](C)NC(=O)CNC(=O)CCOCCOCCOCCNC(=O)CN1CCN(CC(=O)O)CCN(CC(=O)O)CCN(CC(=O)O)CC1)C(=O)N[C@H](C(=O)N[C@@H](CC(C)C)C(=O)N[C@@H](CCCCN)C(=O)N[C@H](C(=O)N[C@@H](CC(N)=O)C(N)=O)C(C)C)[C@@H](C)O [copper-64 labelled] — tissue uptake (ex vivo gamma counting; C57BL/6J male mice, B16-F10 tumour, brain; intravenous, 1.85 MBq, 5 min): 0.212 ± 0.012 %ID/g
O=C1NC2(CC2)COc2ncc(F)cc2[C@H]2COCCN2c2ccn3ncc1c3n2 — haematocrit (Sprague-Dawley rats, female, blood; oral, 5 mg/kg/day, end of treatment, 4-week subacute toxicity): 40.8 ± 4.5%
COc1ccccc1-c1n[nH]c2nc(NC3CCN(C(=O)Cc4ccc(F)cc4F)CC3)ncc12 — relative captured amount (Leishmania CRK3 LINJ.36.0600; bead competition pull-down; Leishmania donovani extract; 10 µM; relative to: vehicle): 0.78 and 0.42
CC[C@H](C)[C@H](NC(=O)[C@H](Cc1ccc(O)cc1)NC(=O)[C@@H](NC(=O)[C@H](CCCNC(=N)N)NC(=O)[C@@H](N)CC(=O)O)C(C)C)C(=O)N[C@@H](Cc1c[nH]cn1)C(=O)N1CCC[C@H]1C(=O)O — Tmax (Beagle dogs, both sexes, plasma; subcutaneous, 10 mg/kg/day, day 0): 26.2 ± 10.6 min
COc1ccccc1-c1n[nH]c2nc(N[C@H]3CC[C@H](NS(=O)(=O)CC(C)C)CC3)ncc12 — relative captured amount (LINJ.27.0510; bead competition pull-down; Leishmania extract; 5 µM; relative to: vehicle): 1.28
C=C/C=C/C[C@@H](C)[C@@H](O)[C@H]1C(=O)N[C@@H](CC)C(=O)N(C)CC(=O)N(C)[C@@H](CC(C)C)C(=O)N[C@@H](C(C)C)C(=O)N(C)[C@@H](CC(C)C)C(=O)N[C@@H](C)C(=O)N[C@H](C)C(=O)N(C)[C@@H](CC(C)C)C(=O)N(C)[C@@H](CC(C)C)C(=O)N(C)[C@@H](C(C)C)C(=O)N1C — plasma Cl− level (Wistar Kyoto rat, male, plasma; ip, 0.5 mg/kg/day, day 18): 101 ± 1 mmol/L

Some of these lines once more:
C=Cc1c(C)c2cc3nc(c(CC(=O)O)c4[nH]c(cc5nc(cc1[nH]2)C(C)=C5CC)c(C)c4C(=O)O)[C@@H](CCC(=O)NCCCC[C@H](NC(C)=O)C(=O)N[C@@H](Cc1ccccc1)C(=O)N[C@@H](Cc1ccccc1)C(=O)N[C@H](C(=O)N[C@@H](CC(C)C)C(=O)N[C@@H](CCCCN)C(=O)N[C@@H](CO)C(=O)NCC(=O)N[C@@H](CCC(N)=O)C(=O)N[C@@H](Cc1ccc(O)cc1)C(=O)N[C@@H](C)C(=O)N[C@@H](CO)C(=O)N[C@@H](Cc1ccc(O)cc1)C(=O)N[C@@H](Cc1c[nH]cn1)C(=O)N[C@@H](CS)C(=O)N[C@@H](Cc1c[nH]c2ccccc12)C(=O)N[C@@H](CS)C(=O)N[C@@H](Cc1c[nH]c2ccccc12)C(=O)N[C@@H](CCCNC(=N)N)C(=O)N[C@@H](CC(=O)O)C(=O)N1CCC[C@H]1C(=O)NCC(=O)N[C@@H](CCCNC(=N)N)C(=O)N[C@@H](CO)C(=O)NCC(=O)NCC(=O)N[C@@H](CO)C(=O)N[C@@H](CCCCN)C(N)=O)C(C)C)[C@@H]3C — blood concentration (mouse, blood; 2 h): 129 µg/mL
